Measured values from different studies.
Lines come from different studies, so protocols differ. ± gives the spread as reported.
DCLRE1A: DNA cross-link repair 1A protein (DCLRE1A, Homo sapiens, UniProt Q6PJP8)
ARAF: Serine/threonine-protein kinase A-Raf (ARAF, Homo sapiens, UniProt P10398)
CSNK2A2: Casein kinase II subunit alpha' (CSNK2A2, Homo sapiens, UniProt P19784)

SMILES	target or system	test	system	setting	how to read	quantity	result
O=C1OC2(c3ccc(O)cc3Oc3cc(O)ccc32)c2ccccc21	DCLRE1A	exonuclease activity, inhibitor, fluorescence HTS	–	10 µM, 80 min, with: 8 nM 5P-FQ substrate	–	remaining activity	14.2%
O=C(Nc1ccc(C2CCCCC2)cc1)[C@H]1CC1(F)F	–	hepatocyte stability	cryopreserved rat hepatocytes	1 µM	–	hepatic clearance	48 mL/min/kg
Cn1cc(-c2ccc(-c3cncc(Cl)c3N3CCC4(CCNC4=O)CC3)cc2)cn1	COLO 205	gene expression, microarray, item: TTLL5 mRNA	–	concentration not given, 2 h	reference: untreated cells	log2 fold change	-2.29
O=C(O)C1=CC(=C(c2ccc(O)c(C(=O)O)c2)c2ccc(O)c(C(=O)O)c2)C=CC1=O	DCLRE1A	exonuclease activity, inhibitor, fluorescence HTS	–	10 µM, 80 min, with: 8 nM 5P-FQ substrate	–	remaining activity	16.9%
COc1ccc(F)cc1C(=O)NCc1ccc(-c2nn([C@@H](C)C(F)(F)F)c(N)c2C(N)=O)cc1	ARAF	kinase activity, inhibitor, HotSpot radiometric	–	100 nM, with: ATP 10 µM	–	remaining activity	98 ± 2.3%
CN(Cc1cccnc1)C(=O)c1ccc([C@H]2[C@@H](F)[C@@H](F)C[C@@H](F)[C@H]2F)cc1	–	hepatocyte stability	cryopreserved human hepatocytes	1 µM	–	hepatic clearance	11 mL/min/kg
COc1cc(F)ccc1-c1ncnc(Nc2cccc(C[S@](C)(=N)=O)c2)n1	CSNK2A2	kinase activity	–	10 µM, with: 10 µM ATP	–	remaining activity	83%
CNc1ncc2c(/C=C/C(=O)N3CCC(OC)CC3)nn(Cc3cccc(C(F)(F)F)c3)c2n1	SRSF protein kinase 3 (SRPK3, Homo sapiens, UniProt Q9UPE1)	kinase activity, inhibitor	–	1 µM	reference: untreated control	remaining activity	114%
COc1cc(-c2cncc3c2CN(C)Cc2cc(N4CCNCC4)ccc2-3)cc(OC)c1OC	ARAF	kinase activity	–	1 µM, human enzyme, with: ATP 10 µM	reference: DMSO control	remaining activity	105%
Cc1cc(Nc2cc(N3CCN(C)CC3)nc(Sc3ccc(NC(=O)C4CC4)cc3)n2)[nH]n1	Abl2 (Mus musculus, UniProt Q4JIM5)	kinase activity, KinaseProfiler	–	0.03 µM, species mouse	reference: control	remaining activity	23%
COc1cc(N2CCN(C)CC2)ccc1Nc1nc(N)n(C(=S)NCc2c(Cl)cccc2Cl)n1	CSNK2A2	enzyme activity	–	10 µM	reference: control	remaining activity	32%
NC/C(=C\F)COc1cccc(Cn2c(=S)[nH]c(=O)c3[nH]cnc32)c1	Myeloperoxidase (MPO, Homo sapiens, UniProt P05164)	LDL lipid peroxidation, inhibitor, cholesteryl ester hydroperoxide	–	0.1667 µM	–	remaining activity	9.49%
COc1cccc2c1C(=O)c1c(O)c3c(c(O)c1C2=O)C[C@@](O)(C(C)=O)C[C@@H]3O[C@H]1C[C@H](N)[C@H](O)[C@H](C)O1	DCLRE1A	exonuclease activity, inhibitor, fluorescence HTS	–	10 µM, 80 min, with: 8 nM 5P-FQ substrate	–	remaining activity	52.7%
O=C1NC(=O)/C(=C/c2ccc(-c3ccc(F)cc3O)o2)S1	Myosin light chain kinase, smooth muscle (MYLK, Homo sapiens, UniProt Q15746)	enzyme activity	–	10 µM	–	remaining activity	37%
COc1cc(Nc2ncc3c(n2)-c2ccc(Cl)cc2C(c2c(F)cccc2OC)=NC3)ccc1C(=O)O	DYRK3	kinase activity	–	1 µM	–	remaining activity	99%
Cc1c2oc3c(C)ccc(C(=O)N[C@@H]4C(=O)N[C@H](C(C)C)C(=O)N5CCC[C@H]5C(=O)N(C)CC(=O)N(C)[C@@H](C(C)C)C(=O)O[C@@H]4C)c3nc-2c(C(=O)N[C@@H]2C(=O)N[C@H](C(C)C)C(=O)N3CCC[C@H]3C(=O)N(C)CC(=O)N(C)[C@@H](C(C)C)C(=O)O[C@@H]2C)c(N)c1=O	DCLRE1A	exonuclease activity, inhibitor, fluorescence HTS	–	10 µM, 80 min, with: 8 nM 5P-FQ substrate	–	remaining activity	36.9%
O=C(O)c1ccc(Nc2ncc3c(n2)-c2ccc(Cl)cc2C(c2c(F)cccc2F)=NC3)cc1	MKK6(h)	kinase activity	–	1 µM	–	remaining activity	94%
COc1cccc2c1C(=O)c1c(O)c3c(c(O)c1C2=O)C[C@@](O)(C(=O)CO)C[C@@H]3O[C@H]1C[C@H](N)[C@H](O)[C@H](C)O1	DCLRE1A	exonuclease activity, inhibitor, fluorescence HTS	–	10 µM, 80 min, with: 8 nM 5P-FQ substrate	–	remaining activity	48.5%
C=CC(=O)N1CCC[C@@H](n2nc(-c3ccc(Oc4ccccc4)cc3)c3c(N)ncnc32)C1	Calcium/calmodulin-dependent protein kinase type 1 (CAMK1, Homo sapiens, UniProt Q14012)	–	–	10 µM	–	remaining activity	7.48%

For quick reference, copied from above:
SMILES	target or system	test	system	setting	how to read	quantity	result
COc1ccc(F)cc1C(=O)NCc1ccc(-c2nn([C@@H](C)C(F)(F)F)c(N)c2C(N)=O)cc1	ARAF	kinase activity, inhibitor, HotSpot radiometric	–	100 nM, with: ATP 10 µM	–	remaining activity	98 ± 2.3%
CN(Cc1cccnc1)C(=O)c1ccc([C@H]2[C@@H](F)[C@@H](F)C[C@@H](F)[C@H]2F)cc1	–	hepatocyte stability	cryopreserved human hepatocytes	1 µM	–	hepatic clearance	11 mL/min/kg
